Published values of several laboratories.
Each numbered part is a random draw from the data of one study; scales do not carry over between parts.

Study 1
Target: RING finger protein unkempt homolog, zinc fingers 1-6, SBP tag (UNK, Homo sapiens, UniProt Q9C0B0, residues 30-357)
Sequence of UniProt Q9C0B0 (30-357, looked up): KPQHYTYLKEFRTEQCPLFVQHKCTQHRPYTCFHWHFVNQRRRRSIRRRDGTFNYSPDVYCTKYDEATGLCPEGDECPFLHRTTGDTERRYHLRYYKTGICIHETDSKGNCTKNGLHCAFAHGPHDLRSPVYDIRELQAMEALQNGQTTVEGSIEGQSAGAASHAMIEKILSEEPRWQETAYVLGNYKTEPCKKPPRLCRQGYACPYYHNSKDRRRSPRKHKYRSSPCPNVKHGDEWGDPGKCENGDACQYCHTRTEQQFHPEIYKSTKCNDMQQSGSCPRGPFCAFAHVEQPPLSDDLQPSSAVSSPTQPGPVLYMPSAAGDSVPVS
Method: RNA Bind-n-Seq
Form: RNA
Medium: in vitro
Tested at: 100 nM
Notes: RNA with constant flanks, vertebrate orthologous sites, ends assumed
Baseline: input RNA pool
Reading: higher = stronger binding
Constant ends, left off below: GGGAGUUCUACAGUCCGACGAUC … CAACAGAGGAUUGAGCAUCA
Strand | bound/input enrichment [ratio]
GAAAUGGUGGUUGUACAUUAUUUCGUUUAGAAAAUAUAAAAAUUAAUUUUGCUUUGAAGUUAGGUGUUAAAUUGGAAUAGCUAUUAUACCCCAGAGAAUGGGGCAGUUGUGCCCUUUCCU | 2.49
GCAAUGAAAAAGCAGCCCUUCUCCCAGCCCCCUUUUCACUAGGAGAUACAAACAUUACAAUAGAAGAGCAAUUAAACUCAAUAAAUUUAUCUUUUCAGGAUGAUCCAGAUUCCAGUACCA | 2.95
UGUGAGCAGUGGAGACUGGCCUGCAACAAGGAGCAAGUCAAGAAAUGUCCAGUAAAACUGCUGUCCUCUGCACUAUCGUUAACCUGCUGUCUCGCUUUUCAUGUAGAUGUAAAUUACUGA | 0.323
GUAUCUUGGUUUGGGGUAGAGGGGAGGGAGGGGCAGAGCUGUGGAAUCUCUCCGGUAUAUGGGUAGAUAAGUGGACCUAUGUUAACCUCUGGGGCAUCUGUUUUGGGGGUGAGUAUGGGU | 0.491
UAUCUUUAGGAUGAAGCUCUUACAUCAGGUGUCACGAGUCUGGAGAACAGAUGGGUUGACUAGUUGUGUUUAUAAAUUACUCUCUGUGGAUUACAAUCCUUUAUAUAUCAACAUCACAGU | 0.544
AAAUUUAUUUCAUGCCCUGGACUCCCUAUCGUACCGAUACUUUAAUAGAAUAUGCUUCUAUAGAAGAUUUCCAAAACAGUCGCCAAACAACAACAUACAAACUUCCAAAUCGAGUAGAUG | 1.07
GAUCAUUUUUUUAUUUCUUGUAUACAUGAUCUAGUCCUCUUGUUUUCUUACACGGUUGUUUGUCAGUAUGUCUGUCACAUUUCCUUCUCAGGCGAAGGGCUAGAGUUUUCAAAACACAAA | 0.527
AUAGAAUAUUGGAUGCAGCGUAGAAGUAGAUCCGAGGCAGUGACUUCAGCUCUGUCGAGACGGUUAGUUUCAAAGGCACCUGCUCUCACGCAGACUUCUCGAUUGGGUUGUUUGCUAGAG | 0.293
CUCUCUCCUAGGUUGGAGCUAGUGGGAAAGUCAUAGGAAUUGAUCACAUUAAGGAGUUAGUAGAUGACUCAAUAAAUAACGUCAGAAAGGACGACCCAGUACUUCUGUCUUCAGGGAGAG | 0.36
CAUGACCUUGUUACUGUGAUAUUUUAAAUAUCCACAGUACUCACUUUUUCCAAAUGAUCCUAGUAAUUGCCUAGAAAUCUCUCUCUUACCUGUUAUUUAUCAAUUUUUCCCAGUAUUUUU | 1.13
GCAUGCACAUGCCGCUGUCACCAAAAGCAAACACGGUCUUCAAAAUCUCCAAUAGCAUUUUUAGUAUUCUCUCCCUCUUUCCUUUCUGUUCCCCUGAUGCUUUAAAUGAUUAGAAGUCCU | 3.15

Study 2
Target: Sal-like protein 4, full length isoform B (SALL4, Homo sapiens, UniProt Q9UJQ4-2, residues 1-616)
Method: universal PBM
Form: double-stranded DNA, one strand shown
Medium: in vitro
Tested at: not given
Notes: 8-mer, flanks averaged, mean of replicates
Reading: higher = stronger binding
Strand | E-score
CTTCTCTC | -0.0553
GAGATTCA | 0.00437
CTGTAACC | 0.0575
CTGGGTCA | -0.207
AAATACTT | 0.273
AATAAGTA | 0.365
CAGATGTA | 0.132
ACTGATTA | 0.219
ATTGTCGG | -0.0661
GATGGCAA | 0.0979
GGTCATGA | 0.0438
ATTGATAA | 0.317
AAGCAGAT | 0.0146
GTTCAATA | 0.259
TGCAAACA | 0.178
ACAGACAA | 0.234
GAGGATCA | -0.0814
GAGCTTCA | -0.0361
CAATGCCG | -0.109
ACAAAAGG | -0.1
GCTACGAA | 0.0111
GAATTCTA | 0.137
CGGTGCGA | -0.273
CGTATTGC | 0.0283

Study 3
Target: RNA binding protein fox-1 homolog 2, RRM domain, GST-SBP tag (RBFOX2, Homo sapiens, UniProt O43251-10, residues 100-194)
Method: RNA Bind-n-Seq
Form: RNA
Medium: in vitro
Tested at: 365 nM
Notes: natural RNA segment, single round, ends assumed
Baseline: no-protein control
Reading: higher = stronger binding
Constant ends, left off below: GGGAGUUCUACAGUCCGACGAUC … UGGAAUUCUCGGGUGCCAA
Residues (chain): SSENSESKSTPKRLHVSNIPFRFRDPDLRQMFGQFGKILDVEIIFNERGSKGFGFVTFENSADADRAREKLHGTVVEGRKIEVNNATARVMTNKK
Strand | RBNS enrichment (R)
GUUAUGAAACUAAUUUGCAUUUUUAUUUGCUUAAGAAAGAAAGCUGUGAUAGAUUCCAGAUAUGCUUUUUGAUGUUUUCCUCUGCUCCAGCUCCAAGAAGUCAGCACACC | 0.695
CGCCCGUGCCUCCAGGGGCCAAGAGGAUGAUGUCGUGGCCUCCAUUCUCGUUUCUAUGCAGCCCCAUAGUCCAAGGACACCCAGUCCACAUCUACCAUAUAGCAAGUUUA | 0.603
GGCUCCAUGGGGAGCCAUCUAAGUUCUUUUCUUUUGGAAGAUUGGGUGUCUCGGAGAGUUGCCAUAUCUCCUUGUGUGAAUUGCGUGCUUGGAAGCAAUUUUUAAAGGGA | 3.27
CUGGAGCCAUGCCGACCUCUACAAACCUUGAACAGGUGCACAGCCCCCUCUCCGGAGCGCUUUGUAAUGCCUUAUUCACGUCGAAAACCAGGAGACUCGGGCUUCGUUUC | 0.335
ACCCUUGGCUUCCUGUUCAAAUAGCCUUUCCAGGUUUAACUUCUUUAAGGAGCCUCAAGUGAAAAAAACAAAAACAAAACAAAAAACCCAGGGCCACUGGGGGAAUGUUU | 0.29
GUCUCUUGUUUUAUUUCUCUCUAAACUUGAAAACAGUAAAUCUGCAGAUACUGUGAGGCACAGAUUAUAUUGUCAAGCUACUGUUGCUAUGGUUAUAGACACCCACUUCA | 0.447
UUUCCUCUCUGUAGAGGGAUGACUGACAGUUUUAUCAAUUCUCCUCACCAGGGUUGACUGCCUUCAGGAAAUGCUGGCCCCAAAGGAUUUGAGGAAAACUUGACUGUCAG | 0.22
CAUGACACCCGACUUCGCCCUCAGCUUUCCACCCCGACCCUCCCACUACAUCUCAAGUGUUACAGACUCCCCUCCCGCUCUUUCUUGGGGAAGAGGGGGUGGGUAAGCGC | 0.489
CACUUGUACAUAACUAUACAGUAGUGUCCAGAAUGUUCAGACAUUCGGAGUGUACAUAAAACAGAAAAAAUCUUCAUGUAUUUUUAUUAAAUAUAACAAUGUCUGAGUUU | 0.48
CUUUGUAAGAUAGAGAUUGUUGAAAAUUCUAUUUUUGUUUUUCAAGUCCUCCCACCCCAGGACUCUAAAUUAUUGGGGUAAAAAACAGCCUUGCAAGAAAAAGGGGAGCU | 1.08
UCAGAGCUCUUAAUGUUGCUUAGAUGAGGGUGACUGUCAAGUACAAGCAAGACUGGGACCUUAGAAAUCAUUGUAGAAACACAGUUUUGAAAGAAAAAUACCAUGUCUCU | 0.326
UGAUGUUUUUGAAGCAUCCUAAGUACAGUAGAGUAGAAAACUGAUUUCUUUGUUAAUUGUACACUGAAUAAUGCCUUUUAAAAAUCAAAAUAAAAUUAACAAAUAAUGGU | 0.404

Study 4
Target: Interferon regulatory factor 5, full length, phosphomimetic (IRF5, Homo sapiens, UniProt Q13568-2, residues 1-514, K96S/S451D/S453D/S456D/S462D)
Method: protein-binding microarray
Form: double-stranded DNA, one strand shown
Medium: in vitro
Tested at: 250 nM
Notes: 60-bp whole probe
Added: salmon DNA 0.4 mg/ml
Baseline: random background probes
Reading: higher = stronger binding
Constant ends, left off below: GCCTAGCAC … GTCTTGATTCGCTTGACGCTGCTG
Strand | log fluorescence [z-score]
GACGGACTGGACACTAGGGACGTGCTA | -0.51
GACGGTTTCCTTTCCCTGAGGTGCTAG | 1.01
TTAGGTCTCGGTTTCGGGTAGTGCTAG | 5.88
CAAGTTTCTCCTTTGTAAATGTGCTAG | 2.57
TTAGATTTCGGTCTCGATTAGTGCTAG | 8.03
GACGGTCCCCTTATCCTGACGTGCTAG | -0.162
TTAGATATCAGACTGGATCAGTGCTAG | 0.321
TTAGGACAGCTACTGCTTTAGTGCTAG | -0.165
GACGATTTCGGGTATCGAAACGTGCTA | 6.34
GACGATTTCACTATCGAGACGTGCTAG | 5.36
TGTTACATTTATATCTTTGCGTGCTAG | 0.798
ATAGATTTCAGTATCGATTAGTGCTAG | 8.38
TTAGATCTCATTATCGATTAGTGCTAG | 6.17
TTAGATATCTGTTTCGATTAGTGCTAG | 8.5
TTAGATTCCGGGTTTCGATTAGTGCTA | 6.76
TGGAATTTCCCTCTCCCCTCGTGCTAG | 0.492
TCACCTTTGCTTTCCTGACTGTGCTAG | 0.484
TCAGGTATCGACACTGGGTTAGTGCTA | 2.07
GACGGTTTCGACTATCCGGACGTGCTA | 6.71
TTAGATATCAGAATGGATTAGTGCTAG | 0.318
TTAGGACTGGGACTGGGCTAGTGCTAG | -0.467
TTAGGACTTGGGACTGGGTTAGTGCTA | -0.418

Repeated from above (study 4):
Strand | log fluorescence [z-score]
GACGATTTCACTATCGAGACGTGCTAG | 5.36
TTAGATTTCGGTCTCGATTAGTGCTAG | 8.03
GACGGTTTCCTTTCCCTGAGGTGCTAG | 1.01
CAAGTTTCTCCTTTGTAAATGTGCTAG | 2.57
TTAGGACTGGGACTGGGCTAGTGCTAG | -0.467
TTAGATCTCATTATCGATTAGTGCTAG | 6.17
